Values quoted from earlier work that unrelated publications cite.
Compare with care: the assays were run in different laboratories. ± marks the error that the study gave.
Genome polyprotein NS2B-NS3 protease: Genome polyprotein, NS2B-NS3 protease (dengue virus type 2, UniProt P29990)

Substance | target | assay | test system | setting | endpoint | result
PVDPFEAQWAALENK | MDM2 SWIB domain | binding | peptide | – | Kd | 3000 nM
CCCCCC(=O)NC(C(=O)NCc1ccc(NC(=N)N)cc1)c1ccc(OCc2ccccc2)cc1 (stereo not shown) | Genome polyprotein NS2B-NS3 protease | DENV-2 protease cell reporter | HeLa | – | EC50 | 490 nM
COc1cc2c(cc1O)C(CCc1ccc(Cl)cc1)N(C)CC2 (stereo not shown) | Glutamate NMDA receptor; Grin1/Grin2b (Grin1/Grin2b, Rattus norvegicus, UniProt P35439+Q00960) | binding, competitive binding | – | – | Kd | 20 ± 3 nM
NC(=O)c1cccc(NC(=O)C(NC(=O)c2ccc(Oc3ccccc3)cc2)c2ccc(OCc3ccccc3)cc2)c1 (stereo not shown) | Genome polyprotein NS2B-NS3 protease | DENV-2 protease cell reporter | HeLa | – | EC50 | 730 nM
CC[C@@H]1CN2CCc3c([nH]c4cccc(O)c34)[C@@H]2C[C@@H]1/C(=C\OC)C(=O)OC | OPRM1 (Homo sapiens, UniProt P35372) | agonist | – | – | EC50 | 681 ± 379 nM
OC[C@@]12C[C@@H]1[C@@H](n1cnc3c(N[C@@H](C4CCC4)C4CC4)nc(Cl)nc31)[C@H](O)[C@@H]2O | HTR2C (Homo sapiens, UniProt P28335) | binding | – | with: [3H]mesulergine | Ki | 270 nM
O=C(NCc1cc(Br)cc(Br)c1OC(=O)c1ccccc1[N+](=O)[O-])c1ccccc1Cl | lasR (Pseudomonas aeruginosa, UniProt P25084) | reporter gene, agonist, lasI-luxCDABE reporter | PAO-JP2 | – | EC50 | 40 nM
C[C@@H]1CN([C@@H](c2cccc(O)c2)c2cccc(C(=O)N(C)c3cccc(F)c3)c2)[C@@H](C)CN1Cc1ccccc1 | rat kappa opioid receptor | binding | – | – | Ki | 21.8 nM
COc1ccc(/C=C/C(=O)NCCc2c[nH]c3ccccc23)cc1OC | ACHE (Homo sapiens, UniProt P22303) | – | – | – | IC50 | 11500 nM
CNC(=O)[C@@]12C[C@@H]1[C@@H](n1cnc3c(NC(C4CC4)C4CC4)nc(Cl)nc31)[C@H](O)[C@@H]2O | ADORA2A (Homo sapiens, UniProt P29274) | binding | – | with: [3H]CGS21680 | Ki | 4320 nM

Some of these lines once more:
Substance | target | assay | test system | setting | endpoint | result
CC[C@@H]1CN2CCc3c([nH]c4cccc(O)c34)[C@@H]2C[C@@H]1/C(=C\OC)C(=O)OC | OPRM1 (Homo sapiens, UniProt P35372) | agonist | – | – | EC50 | 681 ± 379 nM
